Measurements gathered from unrelated publications.
A part holds a random share of what one study measured. Positions count from the first letter of the parent shown.

Block 1
Target: Sal-like protein 4, full length isoform B (SALL4, Homo sapiens, UniProt Q9UJQ4-2, residues 1-616)
Technique: universal PBM
Form: double-stranded DNA, one strand shown
Sample: in vitro
Tested at: not given
Notes: 8-mer, flanks averaged, mean of replicates
Direction: higher = stronger binding
Quantity: E-score
ACAGTCTG: -0.0686
GTGTGCTA: -0.0247
GAGTCATA: 0.246
CAAGATTC: 0.0186
GCACTAAA: 0.148
AAGCCAGT: -0.0303
GACCTGGC: -0.303
ACCATGCC: -0.126
CGTAGAGA: -0.0621
GGGGATCA: -0.204
ACAACTTG: 0.0327
GCATAGAA: 0.0397
GTGTAATA: 0.325
AAGCCCAG: -0.195

Block 2
Target: Ras GTPase-activating protein-binding protein 1, RRM domain (G3BP1, Homo sapiens, UniProt Q13283)
Sequence of UniProt Q13283 (whole entry, looked up): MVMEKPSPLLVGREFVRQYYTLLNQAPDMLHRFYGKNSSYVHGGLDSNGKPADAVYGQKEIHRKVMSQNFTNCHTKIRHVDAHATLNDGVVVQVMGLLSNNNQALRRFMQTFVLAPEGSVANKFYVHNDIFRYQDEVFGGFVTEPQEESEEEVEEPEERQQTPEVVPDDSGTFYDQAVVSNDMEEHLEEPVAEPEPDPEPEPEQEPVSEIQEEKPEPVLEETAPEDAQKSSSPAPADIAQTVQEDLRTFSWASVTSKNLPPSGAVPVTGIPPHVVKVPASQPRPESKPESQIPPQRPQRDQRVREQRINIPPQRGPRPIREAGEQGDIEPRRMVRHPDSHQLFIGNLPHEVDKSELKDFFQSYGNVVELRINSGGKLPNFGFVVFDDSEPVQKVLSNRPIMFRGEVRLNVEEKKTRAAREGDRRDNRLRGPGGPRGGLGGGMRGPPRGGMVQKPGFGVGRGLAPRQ
Technique: RNA Bind-n-Seq
Form: RNA
Sample: in vitro
Tested at: 1 µM
Notes: whole 134-nt RNA, ends assumed
Together with: 150 mM KCl
Relative to: input library
Direction: higher = stronger binding
Quantity: log2 enrichment
All sequences stand within: GGGAGUUCUACAGUCCGACGAUC … UGGAAUUCUCGGGUGUCAAGG
CAAGUCCUGUGCUACACAUCGUAUGUACCGAAUCGGGGAAAGGGAAAGGGGAAAGGAAAGUAUUAUGUUACGCCGUUCGGAUCUGCACUU: -0.197
GUCCUGUGCUACACAUCGUAUGUACCGAAUCGGGGUUUUUGGGUUUUUGGGUUUUUGGAAAGUAUUAUGUUACGCCGUUCGGAUCUGCAC: -0.167
AAGUCCUGUGCUACACAUCGUAUGUACCGAAUCGGGGCCCCGGGCCCCGGCCCCGGAAAGUAUUAUGUUACGCCGUUCGGAUCUGCACUU: -0.542
AGUCCUGUGCUACACAUCGUAUGUACCGAAUCGGGUUUUGGGGUUUUGGGGUUUUGGGAAAGUAUUAUGUUACGCCGUUCGGAUCUGCAC: 0.145
UCAAGUCCUGUGCUACACAUCGUAUGUACCGAAUCGGUGGAAAAAGGUUUUUGGAAAGUAUUAUGUUACGCCGUUCGGAUCUGCACUUCC: -0.155
UAACUUUAGAGGAGGAUCUGAUGGAUAUGGCAGUGGACGUGGAUUUGGGGAUGGCCAUAAUGGGUAUGGAGGAGGACCUGGAGGUGGCAA: -0.356
GUCCUGUGCUACACAUCGUAUGUACCGAAUCGGGUUUGGGUUUUUGGGAAAAAAAGGGAAAGUAUUAUGUUACGCCGUUCGGAUCUGCAC: 0.259
CACAGACAACACGCACCCACACAGACACAGAGGGAAGGGGUUGGGAUGGGGACAGGGUGCACAGCAGGGCGUGGUAGGACCCCAGCCCCU: -0.288
CACAGACUACACGCACCCACACAGACACAGAGGGAAGGGGUUGGGAUGGGGACAGGGUGCACAGCAGGGCGGGGUAGGACCCCAGCCCCU: -0.155
UCCUGUGCUACACAUCGUAUGUACCGAAUCGGGUUUUUUGGGUUUUUUGGGUUUUUUGGGAAAGUAUUAUGUUACGCCGUUCGGAUCUGC: -0.0585
ACCAUGCAGGUGGGCAUCUUUGGGAAAAAGGGCAAGGGGGGGAUAGGGAGGGGGGUAACACUUUGGGAACAGGUGGUCCCAGGUCGUUUC: -0.316
UCAAGUCCUGUGCUACACAUCGUAUGUACCGAAUCGGGGCCGGGGCCGGGCCGGAAAGUAUUAUGUUACGCCGUUCGGAUCUGCACUUCC: -1.32
UAACUUUAGAGGAGGAUCUGAUGGAUAUGGCAGUGGACGUGGAUUUGGGGAUGGCUAUAAUGGGUCUGGAGGAGGACCUGGAGGUGGCAA: -0.496
AGUCCUGUGCUACACAUCGUAUGUACCGAAUCGGUUUUGGGGUUUUGGGGUUUUGGGGAAAGUAUUAUGUUACGCCGUUCGGAUCUGCAC: 0.0179

Block 3
Target: CCNE1, cyclin fold, Cln2 fusion (human)
Technique: yeast growth competition, sequencing
Sample: yeast
Notes: strong parent motif
Relative to: not given
Direction: higher = stronger binding
Quantity: normalised enrichment score
Parent: CDC25A docking peptide (human); PPHRRRLLFACSP
PPHRRVLLFACSP [R6V]: 1.39
PPHRRRLLIACSP [F9I]: 0.661
PPHRRRLLFYCSP [A10Y]: 0.663
PPHRRRLLKACSP [F9K]: 0.843
PPHRRRLLFACPP [S12P]: 1.51
PPHRRRLLFACWP [S12W]: 1.73
PPHRRRLLFACSL [P13L]: 0.678
PPHRRRLLFRCSP [A10R]: 1.13
PPHRRSLLFACSP [R6S]: 0.366
PPHRRRLLFLCSP [A10L]: 1.27
PPHLRRLLFACSP [R4L]: 1.46
PPHRRRLLFACGP [S12G]: 1.4
KPHRRRLLFACSP [P1K]: 2.45
PPHRRRLLFWCSP [A10W]: 1.46
PPHRRRLLFATSP [C11T]: 1.37
PPHRRRLLFECSP [A10E]: 3.2
PNHRRRLLFACSP [P2N]: 1.47
PPHRRRLHFACSP [L8H]: 1.25

Block 4
Target: RNA binding protein fox-1 homolog 2, RRM domain, GST-SBP tag (RBFOX2, Homo sapiens, UniProt O43251-10, residues 100-194)
Technique: RNA Bind-n-Seq
Form: RNA
Sample: in vitro
Tested at: 365 nM
Notes: natural RNA segment, single round, ends assumed
Relative to: no-protein control
Direction: higher = stronger binding
Quantity: RBNS enrichment (R)
All sequences stand within: GGGAGUUCUACAGUCCGACGAUC … UGGAAUUCUCGGGUGCCAA
Target sequence (chain): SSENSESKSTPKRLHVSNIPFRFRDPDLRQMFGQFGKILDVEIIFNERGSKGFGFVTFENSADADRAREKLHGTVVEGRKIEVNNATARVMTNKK
CAGCCAAGCUGUGCCCCAUCCCCCAAGCCUCCUGGGAGGAUCCAGCCAAAUCUUGCGACUCCUGGCACACACCUGUCUGUAACCUGUUUUGUGCUCUGAAAGCAAAUAGU: 0.274
GUUGCUAAAUUUUGUAGCACUGUUUACAGUUUUCCUCCAUGUUAUUUAUGAAUUUUAUAUUCCGUGAAUGUAUAUUGUCUUGUAAUGUUGCAUAGUGUUCACUUUUUAUA: 2.38
CGGGGCGAGGUACUGGCUGCAGAGUCGCCUUAGUCCAGAACCUGACAGGCCUCUGGAGCCAGGCGACUUCUUGGGAAACUGUCAUCUCCCGACUCCUCCCUGAGCCAGCC: 0.362
UUAUUUUAAAUGUUUACAUUUCUUUGUGUUGUUCCAAGCCUGAAUAGAAACAGAUAGCAUUAAAGUACUUCCUUCCCACUCCUUUCUCUGGCUCUCUCUCCCCCACUUGU: 1.03
AGCUAAGCCUCUCUUCAUCUGGAAGAAGAGGCAAGGGGGCAGGAGACCAGGCUCUAGCUCUGGGCCCUCCUUCAGCCCCCAUCAUGGGAAUAAAUUAAUUUUCUCAAUGU: 0.304
UAAUAAUCUGUGCCAACUCUACCUUCUCACUUUUACCUCUGACGUCAUUCUUUUUUUCUGAAAGAGGUAAUAAUUCUAGUUUUGAUAGACUCUGAGGAUUAUGUGAACAG: 0.374
GUAGUCUUUGGAGUCUACAAGUGACUGUCAUUUUAAGCAACUCAUUAAAUAUUGGUUCAUUUUUUUUCCAUGUUGUGGAGACACCAAGAUGAACGCAGCAUGAAUCUCAU: 5.83
UUGCCUUCCAGAAAGCCAUCUUUGGGCUACUGUAAUAUGACAAAUAAAAUCCUCACUGUGUGCAUCCUGAGUUGUGUGGUCGGUCUCUUUGUUUCUAAAUGGAGUGGGUA: 0.651
CCCGUCAUGCUGUCCGUACACUACGUAUGCUGUAGAGCCAUUUUGUAUGUUGUGUAAAACAAAAAGCAUUGAUGAAAAAGCAAAAGGUGAUGUAUGUAUAUGAGAAAAUU: 1.85
AUCAGUGGGGCAGUGUUACCAUAAACACGGUGUAUAUGUUGUUAAACCCUAUGAAGAGUAACAGUGUAGACCAGACUGCCUCUCUCAGAUAUGUGCCUGAUAUUUUGUGG: 0.677
ACCUUUAAAAGAUCAGUAAGAUGUUUCUCAUAUUUAUGAACUUAGCACUUGAAAACCAACACACUCAGAAAAAGCCACAGAUUGUUAAAAGCCUAAUUGUAGUUCGUAAC: 0.532
CUAGAGAUUUUUUCAGAUUUAUAGACUUAAAAAAUUAGAAUUUUAUUACCAGGCUUUCCUUCUCACCCCUUUUUUCUGACUUUGCCAAGUAAUUUGUUGACACGAAAAUU: 1.13

Block 5
Target: Histone acetyltransferase KAT6A, both winged helices, GST fusion (KAT6A, Homo sapiens, UniProt Q92794, residues 1-181)
Technique: protein binding microarray
Form: double-stranded DNA, one strand shown
Sample: in vitro
Tested at: not given
Notes: 8-mer, flanks averaged, mean of 2 arrays, mostly near background
Relative to: not given
Direction: higher = stronger binding
Quantity: E-score
Target sequence (chain): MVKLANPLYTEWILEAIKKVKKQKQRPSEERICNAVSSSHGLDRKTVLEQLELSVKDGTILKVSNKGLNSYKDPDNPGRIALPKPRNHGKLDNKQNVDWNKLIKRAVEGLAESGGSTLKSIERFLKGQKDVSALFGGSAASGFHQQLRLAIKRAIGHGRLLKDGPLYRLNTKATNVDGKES
ACACGCAA: 0.113
AAGTCTGT: -0.139
ACAAAGTG: -0.219
CCGTTGCG: 0.286
TGGTTACA: -0.117
AGTATAAT: -0.163
CAACCTGA: -0.195
CTCCAGCC: -0.0631
GATACTTA: -0.228
ACCAGTAT: -0.0483
CTCGTGAC: -0.0158
ATGCCACC: -0.104
CTCGAGCC: 0.0424
CAAATACG: -0.00872
GGATGTTA: 0.0497
ATCGACGG: 0.163
AGAGTGCT: -0.119
AGTGCGTA: 0.087
TAGTGCGA: 0.105
GAACGCAC: 0.079
GACCACAA: -0.115
ATGAGTGG: -0.145
CATGTTCC: 0.103
GTTTTCGA: -0.0113
CCTCTACC: -0.102

Block 6
Target: ABI1, truncated, D143A, DHFR fusion (Arabidopsis thaliana, UniProt P49597)
Technique: DHFR PCA, dose-response
Sample: yeast
Notes: Hill fit, mean, not affinity
Together with: (+)-ABA, dose series
Direction: lower = more sensitive
Quantity: ABA EC50
Parent: PYL1, truncated, DHFR fusion (Arabidopsis thaliana, UniProt Q8VZS8); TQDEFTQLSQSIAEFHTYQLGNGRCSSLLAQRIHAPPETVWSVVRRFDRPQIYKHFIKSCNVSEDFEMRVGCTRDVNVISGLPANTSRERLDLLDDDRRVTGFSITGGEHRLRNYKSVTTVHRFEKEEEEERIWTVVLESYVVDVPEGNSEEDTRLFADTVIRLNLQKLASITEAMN
A30V: 1.61 µM
E127V: 3.03 µM
L20M: 3.94 µM
S42W: 48.1 µM
T173A: 1.82 µM
I79R: 13.9 µM
E129A: 1.97 µM
F56C: 34.7 µM
D92W: 67.6 µM
E127K: 2.1 µM
R88Y: 2.46 µM
T173G: 24.7 µM
N22S: 2.84 µM
E129Q: 2.33 µM
G81V: 334 µM
M68G: 8.16 µM

For quick reference, copied from above (block 5):
GATACTTA: -0.228
ACAAAGTG: -0.219
CTCGAGCC: 0.0424
GACCACAA: -0.115
AGTATAAT: -0.163
CATGTTCC: 0.103
GTTTTCGA: -0.0113
GGATGTTA: 0.0497
CTCCAGCC: -0.0631
CAACCTGA: -0.195
CTCGTGAC: -0.0158
